Experimental data collected from several papers.
Lines come from different studies, so protocols differ. ± gives the spread as reported.
IDO1: Indoleamine 2,3-dioxygenase 1 (IDO1, Homo sapiens, UniProt P14902)

Sequences of proteins named here, by UniProt entry; tags and fusion partners are left off. Residues count along the entry.
UniProt P14902, whole entry: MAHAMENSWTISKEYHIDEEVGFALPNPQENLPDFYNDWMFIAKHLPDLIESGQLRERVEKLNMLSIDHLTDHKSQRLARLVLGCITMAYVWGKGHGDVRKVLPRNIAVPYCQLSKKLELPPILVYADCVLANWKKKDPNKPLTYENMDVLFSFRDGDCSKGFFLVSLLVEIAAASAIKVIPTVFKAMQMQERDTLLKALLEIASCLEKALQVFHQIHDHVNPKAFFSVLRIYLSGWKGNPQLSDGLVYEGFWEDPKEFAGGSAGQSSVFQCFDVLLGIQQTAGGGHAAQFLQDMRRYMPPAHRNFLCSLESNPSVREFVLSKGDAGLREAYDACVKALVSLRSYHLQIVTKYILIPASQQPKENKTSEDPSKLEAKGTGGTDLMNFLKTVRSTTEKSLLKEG
UniProt P46116, whole entry: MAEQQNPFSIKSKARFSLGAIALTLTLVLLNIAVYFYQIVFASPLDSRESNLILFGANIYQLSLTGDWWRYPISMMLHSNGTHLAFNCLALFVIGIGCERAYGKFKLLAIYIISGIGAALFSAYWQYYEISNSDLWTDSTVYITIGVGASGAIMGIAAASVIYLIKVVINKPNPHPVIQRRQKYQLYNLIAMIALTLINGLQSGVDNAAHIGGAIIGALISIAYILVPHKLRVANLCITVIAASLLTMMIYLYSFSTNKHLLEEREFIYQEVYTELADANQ
UniProt P22455, 22-802 limits assumed: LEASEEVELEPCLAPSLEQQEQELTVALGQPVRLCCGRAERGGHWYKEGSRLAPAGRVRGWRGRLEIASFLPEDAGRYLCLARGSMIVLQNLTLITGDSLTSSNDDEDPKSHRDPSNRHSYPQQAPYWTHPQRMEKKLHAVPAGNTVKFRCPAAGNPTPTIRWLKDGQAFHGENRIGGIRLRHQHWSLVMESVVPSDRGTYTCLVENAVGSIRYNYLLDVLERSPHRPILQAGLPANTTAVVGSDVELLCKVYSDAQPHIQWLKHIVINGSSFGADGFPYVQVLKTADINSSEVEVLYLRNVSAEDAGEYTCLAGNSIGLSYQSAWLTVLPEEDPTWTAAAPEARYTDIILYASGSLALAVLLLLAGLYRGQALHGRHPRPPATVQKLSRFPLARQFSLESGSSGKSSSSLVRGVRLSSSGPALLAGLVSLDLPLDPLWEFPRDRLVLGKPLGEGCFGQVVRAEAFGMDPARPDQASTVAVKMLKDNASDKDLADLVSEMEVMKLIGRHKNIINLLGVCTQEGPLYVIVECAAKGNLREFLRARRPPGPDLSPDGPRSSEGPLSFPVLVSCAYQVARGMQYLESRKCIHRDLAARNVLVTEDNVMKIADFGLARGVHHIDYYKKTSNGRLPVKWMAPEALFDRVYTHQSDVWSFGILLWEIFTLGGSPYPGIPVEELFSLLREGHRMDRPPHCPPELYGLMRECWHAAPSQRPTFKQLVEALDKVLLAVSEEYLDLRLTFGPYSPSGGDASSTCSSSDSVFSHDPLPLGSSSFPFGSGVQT
UniProt P03372, whole entry: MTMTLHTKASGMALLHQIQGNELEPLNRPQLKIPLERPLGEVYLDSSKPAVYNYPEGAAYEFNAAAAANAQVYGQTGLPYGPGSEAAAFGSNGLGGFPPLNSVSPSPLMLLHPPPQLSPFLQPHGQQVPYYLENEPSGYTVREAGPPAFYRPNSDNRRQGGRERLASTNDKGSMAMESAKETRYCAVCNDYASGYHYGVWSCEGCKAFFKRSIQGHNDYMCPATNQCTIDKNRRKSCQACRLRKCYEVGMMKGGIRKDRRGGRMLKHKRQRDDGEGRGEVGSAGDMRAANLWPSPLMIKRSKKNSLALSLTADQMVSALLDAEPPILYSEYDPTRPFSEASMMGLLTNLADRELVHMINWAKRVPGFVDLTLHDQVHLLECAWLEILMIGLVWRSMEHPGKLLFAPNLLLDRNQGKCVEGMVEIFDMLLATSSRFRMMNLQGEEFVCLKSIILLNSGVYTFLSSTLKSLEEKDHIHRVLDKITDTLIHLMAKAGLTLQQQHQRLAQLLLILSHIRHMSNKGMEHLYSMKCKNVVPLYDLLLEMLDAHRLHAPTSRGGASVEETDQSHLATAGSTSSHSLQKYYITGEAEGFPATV
UniProt Q6P5Z2, whole entry: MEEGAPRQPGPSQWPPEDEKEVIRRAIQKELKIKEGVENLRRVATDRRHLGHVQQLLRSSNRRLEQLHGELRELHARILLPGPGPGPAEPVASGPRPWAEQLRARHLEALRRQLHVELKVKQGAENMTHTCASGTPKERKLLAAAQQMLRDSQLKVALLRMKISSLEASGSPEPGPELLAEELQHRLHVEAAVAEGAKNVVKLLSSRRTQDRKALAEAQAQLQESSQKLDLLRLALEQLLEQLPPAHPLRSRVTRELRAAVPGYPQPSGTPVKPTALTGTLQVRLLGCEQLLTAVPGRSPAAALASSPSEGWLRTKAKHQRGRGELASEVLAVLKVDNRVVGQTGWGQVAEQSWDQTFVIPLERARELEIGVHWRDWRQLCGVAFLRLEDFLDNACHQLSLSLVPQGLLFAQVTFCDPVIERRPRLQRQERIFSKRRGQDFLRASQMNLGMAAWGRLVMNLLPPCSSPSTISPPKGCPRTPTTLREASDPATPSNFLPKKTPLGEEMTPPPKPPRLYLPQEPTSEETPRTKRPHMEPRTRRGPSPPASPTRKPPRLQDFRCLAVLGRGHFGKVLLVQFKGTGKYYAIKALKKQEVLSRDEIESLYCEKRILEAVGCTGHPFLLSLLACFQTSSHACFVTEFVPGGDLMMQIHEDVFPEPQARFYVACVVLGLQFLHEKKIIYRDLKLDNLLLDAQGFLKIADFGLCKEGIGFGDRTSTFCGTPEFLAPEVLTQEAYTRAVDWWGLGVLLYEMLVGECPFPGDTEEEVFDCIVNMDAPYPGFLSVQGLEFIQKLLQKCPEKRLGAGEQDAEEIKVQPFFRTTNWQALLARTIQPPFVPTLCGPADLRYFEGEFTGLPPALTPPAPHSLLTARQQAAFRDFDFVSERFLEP
UniProt P29466, whole entry, looked up: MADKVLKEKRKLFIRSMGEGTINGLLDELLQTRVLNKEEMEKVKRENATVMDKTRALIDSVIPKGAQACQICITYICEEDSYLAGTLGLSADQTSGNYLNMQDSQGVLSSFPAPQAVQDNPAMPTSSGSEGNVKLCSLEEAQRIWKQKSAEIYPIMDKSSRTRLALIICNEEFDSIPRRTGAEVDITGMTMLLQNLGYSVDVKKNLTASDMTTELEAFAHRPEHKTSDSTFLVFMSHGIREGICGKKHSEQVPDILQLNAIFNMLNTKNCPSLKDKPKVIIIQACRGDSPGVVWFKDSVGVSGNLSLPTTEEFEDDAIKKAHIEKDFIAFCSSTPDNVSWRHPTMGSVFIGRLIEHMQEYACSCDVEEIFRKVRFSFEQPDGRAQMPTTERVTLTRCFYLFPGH
UniProt O00167, whole entry: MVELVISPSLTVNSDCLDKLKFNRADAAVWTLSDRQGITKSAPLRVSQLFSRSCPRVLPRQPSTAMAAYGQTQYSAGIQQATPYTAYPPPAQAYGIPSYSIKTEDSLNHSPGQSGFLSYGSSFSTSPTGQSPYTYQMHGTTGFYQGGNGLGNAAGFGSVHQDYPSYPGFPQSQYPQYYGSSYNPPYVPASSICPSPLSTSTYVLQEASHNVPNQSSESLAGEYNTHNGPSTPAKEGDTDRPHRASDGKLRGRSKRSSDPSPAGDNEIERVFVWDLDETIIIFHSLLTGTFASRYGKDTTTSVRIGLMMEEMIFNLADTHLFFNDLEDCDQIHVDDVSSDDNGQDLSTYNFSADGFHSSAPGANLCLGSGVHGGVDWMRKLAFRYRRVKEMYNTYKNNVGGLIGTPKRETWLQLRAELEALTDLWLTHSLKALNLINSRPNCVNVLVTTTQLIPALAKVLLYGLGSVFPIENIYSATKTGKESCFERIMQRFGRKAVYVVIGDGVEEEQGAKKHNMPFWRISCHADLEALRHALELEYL
UniProt O08529, whole entry: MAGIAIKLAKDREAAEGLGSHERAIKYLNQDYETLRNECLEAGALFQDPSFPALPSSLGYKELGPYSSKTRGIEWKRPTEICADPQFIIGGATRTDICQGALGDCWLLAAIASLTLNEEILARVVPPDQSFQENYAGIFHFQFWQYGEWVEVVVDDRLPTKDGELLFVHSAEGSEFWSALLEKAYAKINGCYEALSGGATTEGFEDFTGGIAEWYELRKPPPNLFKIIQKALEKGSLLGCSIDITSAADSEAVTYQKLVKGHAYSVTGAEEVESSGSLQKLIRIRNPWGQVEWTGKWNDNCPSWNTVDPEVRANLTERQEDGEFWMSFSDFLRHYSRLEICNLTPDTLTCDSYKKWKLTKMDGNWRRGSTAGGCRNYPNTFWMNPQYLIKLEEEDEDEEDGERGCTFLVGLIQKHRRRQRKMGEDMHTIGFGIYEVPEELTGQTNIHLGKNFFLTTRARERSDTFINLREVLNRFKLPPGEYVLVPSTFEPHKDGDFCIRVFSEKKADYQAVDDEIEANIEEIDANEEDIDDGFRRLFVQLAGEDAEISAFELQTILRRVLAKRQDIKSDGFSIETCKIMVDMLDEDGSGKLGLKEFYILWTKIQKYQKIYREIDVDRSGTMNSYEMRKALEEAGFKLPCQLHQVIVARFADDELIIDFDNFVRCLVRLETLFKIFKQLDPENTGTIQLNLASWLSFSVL
UniProt Q8TF76, whole entry: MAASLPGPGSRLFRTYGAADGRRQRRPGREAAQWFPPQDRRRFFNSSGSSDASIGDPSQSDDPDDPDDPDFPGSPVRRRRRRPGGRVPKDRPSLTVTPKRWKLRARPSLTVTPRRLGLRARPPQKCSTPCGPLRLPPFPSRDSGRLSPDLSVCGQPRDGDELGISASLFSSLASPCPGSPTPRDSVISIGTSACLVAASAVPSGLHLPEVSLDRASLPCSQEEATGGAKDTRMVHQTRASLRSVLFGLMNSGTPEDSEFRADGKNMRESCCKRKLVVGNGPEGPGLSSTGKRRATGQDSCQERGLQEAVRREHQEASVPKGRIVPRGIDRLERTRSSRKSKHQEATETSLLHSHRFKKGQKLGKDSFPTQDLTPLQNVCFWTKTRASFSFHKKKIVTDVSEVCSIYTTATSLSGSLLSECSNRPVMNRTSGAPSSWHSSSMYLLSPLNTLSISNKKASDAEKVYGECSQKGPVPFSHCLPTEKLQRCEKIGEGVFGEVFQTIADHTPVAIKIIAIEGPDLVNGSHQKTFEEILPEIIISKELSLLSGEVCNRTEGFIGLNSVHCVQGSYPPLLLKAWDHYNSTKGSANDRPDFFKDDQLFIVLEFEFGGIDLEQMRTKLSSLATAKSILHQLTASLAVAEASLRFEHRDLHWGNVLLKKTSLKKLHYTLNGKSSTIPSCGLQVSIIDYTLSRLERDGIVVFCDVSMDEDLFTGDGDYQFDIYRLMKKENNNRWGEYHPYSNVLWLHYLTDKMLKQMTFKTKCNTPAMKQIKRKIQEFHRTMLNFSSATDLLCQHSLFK
UniProt P34913, whole entry: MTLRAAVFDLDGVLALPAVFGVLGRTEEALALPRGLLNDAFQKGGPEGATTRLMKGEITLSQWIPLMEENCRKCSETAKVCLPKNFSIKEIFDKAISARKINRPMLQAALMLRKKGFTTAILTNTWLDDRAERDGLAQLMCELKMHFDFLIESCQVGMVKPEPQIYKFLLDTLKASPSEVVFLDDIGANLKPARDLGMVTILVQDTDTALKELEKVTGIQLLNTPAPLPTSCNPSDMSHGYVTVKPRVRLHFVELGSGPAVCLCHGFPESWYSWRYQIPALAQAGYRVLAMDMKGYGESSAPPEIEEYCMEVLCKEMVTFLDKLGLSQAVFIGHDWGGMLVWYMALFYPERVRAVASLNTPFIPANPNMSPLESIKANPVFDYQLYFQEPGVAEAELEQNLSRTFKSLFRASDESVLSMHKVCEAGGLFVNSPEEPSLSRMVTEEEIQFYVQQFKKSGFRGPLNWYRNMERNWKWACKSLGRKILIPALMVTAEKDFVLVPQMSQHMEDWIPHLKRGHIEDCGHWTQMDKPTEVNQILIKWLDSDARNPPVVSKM
UniProt P26038, whole entry, looked up: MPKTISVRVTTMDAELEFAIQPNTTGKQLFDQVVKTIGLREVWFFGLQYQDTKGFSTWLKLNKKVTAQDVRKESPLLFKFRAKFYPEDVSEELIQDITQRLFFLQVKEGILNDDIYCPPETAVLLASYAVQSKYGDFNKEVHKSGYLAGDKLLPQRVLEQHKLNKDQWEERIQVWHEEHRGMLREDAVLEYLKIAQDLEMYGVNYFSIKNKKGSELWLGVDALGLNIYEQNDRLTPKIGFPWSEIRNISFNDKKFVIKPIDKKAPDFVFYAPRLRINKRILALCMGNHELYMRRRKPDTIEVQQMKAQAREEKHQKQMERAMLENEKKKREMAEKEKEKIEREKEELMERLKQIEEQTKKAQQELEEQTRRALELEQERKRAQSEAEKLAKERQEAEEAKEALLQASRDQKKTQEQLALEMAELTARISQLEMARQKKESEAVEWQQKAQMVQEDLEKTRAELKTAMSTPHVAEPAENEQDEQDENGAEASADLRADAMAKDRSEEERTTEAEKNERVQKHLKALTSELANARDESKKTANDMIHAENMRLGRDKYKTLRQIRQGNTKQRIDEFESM

| Compound | tested on | assay | system | setting | scale | endpoint | value |
| --- | --- | --- | --- | --- | --- | --- | --- |
| COc1ccc2c3c(cccc13)C(=O)N(C)C2=O | Rhomboid protease AarA (Providencia stuartii, UniProt P46116) | inhibitor, fluorogenic peptide substrate | – | – | – | IC50 | 13.6 µM |
| Cc1cc(Nc2ncc3c(n2)N(C)C(=O)N(c2cc(NC(=O)c4cccc(C(F)(F)F)c4)ccc2C)C3)n(C)n1 | FGFR4 (Homo sapiens, UniProt P22455) | enzyme activity, inhibitor, radiometric kinase | – | – | – | IC50 | < 0.001 µM |
| COC(=O)[C@@H]1C(C=Nc2cncnc2NC(C)=O)=Cc2cc3c(cc2[C@H]1c1cc(OC)c(OC)c(OC)c1)OCO3 | Leishmania | – | mouse splenocytes | – | baseline: CC50 over amastigote EC50 | selectivity index | > 6.4 |
| Oc1ccccc1C1=NCCCO1 | Adenosine deaminase (ADA, Bos taurus, UniProt P56658) | enzyme activity | – | 25 °C | – | IC50 | > 700 µM |
| COc1cc([C@@H]2c3cc4c(cc3C=C(C=O)[C@H]2C(=O)OCc2ccc(CBr)cc2)OCO4)cc(OC)c1OC | Leishmania infantum | Alamar Blue | HepG2 | – | baseline: CC50 HepG2 over EC50 amastigotes | selectivity index | 0.4 |
| CC(C)NC(=O)CSc1nc2ccc(NC(=O)CSc3cccc(C(F)(F)F)c3)cc2s1 | Estrogen receptor (ESR1, Homo sapiens, UniProt P03372) | reporter gene, antagonist | HEC-1 transfected ERα luciferase reporter | – | – | IC50 | > 50 µM |
| O=C(NCc1ccc(Cl)cc1)[C@@H]1C[C@@H](O)CN1C(=O)c1cccc(-c2ccccc2)c1 | von Hippel-Lindau disease tumor suppressor, with elongin B, C (VHL, Homo sapiens, UniProt P40337) | binding, fluorescence polarization | – | 10% DMSO, added: FAM-HIF1α peptide tracer | – | IC50 | 33 ± 4 µM |
| COc1ccc2nccc(Nc3ccc(NC(=O)c4ccc(C)cc4)c(O)c3)c2c1 | PKN3 (Homo sapiens, UniProt Q6P5Z2) | binding, split-luciferase | – | – | – | IC50 | > 50 µM |
| Cc1ncsc1-c1ccc([C@H](C)NC(=O)[C@@H]2C[C@@H](O)CN2C(=O)[C@@H](NC(=O)CCCCCCC(=O)N2CCN(C[C@]3(C)CCC(c4ccc(Cl)cc4)=C(CN4CCN(c5ccc(C(=O)NS(=O)(=O)c6ccc(N[C@H](CCN7CCOCC7)CSc7ccccc7)c(S(=O)(=O)C(F)(F)F)c6)cc5)CC4)C3)CC2)C(C)(C)C)cc1 | – | – | STAM mice NASH-HCC model, liver | day 150, treated days 90-150 | – | liver fibrosis | decreased |
| O=C(CCl)N1CCN(c2cc(N3CCCC3)nc(N3CCCC3)n2)CC1 | Caspase-1 (CASP1, Homo sapiens, UniProt P29466) | inhibitor | – | 15 min preincubation | – | IC50 | > 0.5 µM |
| O=C(O)c1cc(C(=O)N[C@@H](Cc2c[nH]c3ccccc23)C(=O)O)cc([C@H]2CCN[C@@H]2C(=O)O)c1 | AMPA receptor (rat) | binding, radioligand binding | rat cortical synaptosomes | added: [3H]AMPA | – | IC50 | 10 µM |
| O=C(Nc1ccc(Br)c(F)c1)C(NS(=O)(=O)c1cccs1)c1ccccc1 (centres unmarked) | Uracil nucleotide/cysteinyl leukotriene receptor, long isoform (GPR17, Homo sapiens, UniProt Q13304) | calcium mobilization, antagonist | 1321-N1 | – | – | IC50 | 11.7 ± 0.26 µM |
| O=C(N/N=C/c1ccc(Sc2ccccn2)s1)c1ccccc1Cl | Protein phosphatase EYA2 (Homo sapiens, UniProt O00167) | tyrosine phosphatase activity, inhibitor | – | – | – | IC50 | 4.75 µM |
| NS(=O)(=O)c1ccc(Cc2c(-c3ccc(F)c(C4CCCCC4)c3)nn(-c3nc(C(=O)O)cs3)c2CC2CC2)cc1F | LDHA (Homo sapiens, UniProt P00338) | enzyme activity, inhibitor | – | – | – | IC50 | 0.04 ± 0.01 µM |
| CCC(NC(=O)C(CC(C)C)NC(=O)Cc1ccncc1)C(=O)C(=O)NCc1cc(OC)cc(OC)c1 (centres unmarked) | Calpain-2 catalytic subunit (Capn2, Mus musculus, UniProt O08529) | enzyme activity, inhibitor | pons-cerebellum membrane fractions | added: calcium 2 mM | – | IC50 | 0.498 µM |
| O=C(c1ccc(O)c(Br)c1)N1Cc2ccccc2C1 | HSP90AA1 (Homo sapiens, UniProt P07900) | binding, fluorescence polarization | – | added: FITC-geldanamycin tracer | – | IC50 | 2.73 ± 0.19 µM |
| CCCS(=O)(=O)N(C)C(CCC(=O)O)C(=O)O (centres unmarked) | FOLH1 (Homo sapiens, UniProt Q04609) | enzyme activity, inhibitor, HPLC | – | 15 min, pH 7.4, 37 °C, 1% Triton X-100, added: 10 mM glutamate dipeptide substrate | – | IC50 | > 100 µM |
| NCCCSc1c2cc(O)ccc2nc2ccc(O)cc12 | HASPIN (Homo sapiens, UniProt Q8TF76) | inhibitor, TR-FRET | – | added: histone H3 peptide | – | IC50 | 0.044 µM |
| COC(=O)[C@@]1(C)C=C(C(=O)Nc2cccc(C(=O)NC34CC(Nc5nccc(-c6cccnc6)n5)(C3)C4)c2)C(=O)CC1 | MAPK9 (Homo sapiens, UniProt P45984) | enzyme activity, inhibitor | – | 0.1829 µM | – | remaining activity | 0.262 fraction of control |
| COc1ccc2[nH]cc(/C=C/c3ccc(NC(C)=O)cc3)c2c1 | IDO1 | enzyme activity, inhibitor | – | – | – | IC50 | 10.5 µM |
| COC(=O)N1CCN(CCCOc2ccccc2NC(=O)NC23CC4CC(CC(C4)C2)C3)CC1 | EPHX2 (Homo sapiens, UniProt P34913) | enzyme activity, inhibitor | – | pH 7.0, 30 °C, added: CMNPC 5 µM | – | IC50 | 9.1 µM |
| N#Cc1ccc2[nH]cc(/C=C/c3cccc(O)c3)c2c1 | IDO1 | enzyme activity, inhibitor | – | – | – | IC50 | 21.4 µM |
| Cc1ccc(C(=O)Nc2ccc(-c3nc4ccccc4[nH]3)cc2)cc1 | Moesin, with CD44 (Homo sapiens, UniProt P26038) | MSN-CD44 interaction, inhibitor, TR-FRET | – | added: CD44 | – | IC50 | > 100 µM |
